Measured values gathered from unrelated publications.
A part holds a random share of what one study measured.

Set 1
Target: Fragile X messenger ribonucleoprotein 1, C-terminal low-complexity region (Fmr1, Mus musculus, UniProt P35922)
Method: RNA Bind-n-Seq
Molecule type: RNA
Matrix: in vitro
Concentration: 200 nM
Notes: whole 134-nt RNA, ends assumed
With: 150 mM KCl
Baseline: input library
Reading: higher = stronger binding
Strand | log2 enrichment
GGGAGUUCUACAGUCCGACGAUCUCCUGUGCUACACAUCGUAUGUACCGAAUCGGGGUUUUUUUGGGGAGGGGUUUUUGGGGAAAGUAUUAUGUUACGCCGUUCGGAUCUGCAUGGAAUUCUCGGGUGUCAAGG | 0.767
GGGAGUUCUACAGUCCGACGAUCCUCAAGUCCUGUGCUACACAUCGUAUGUACCGAAUCGGGGUGGGGUGGUGGGGAAAGUAUUAUGUUACGCCGUUCGGAUCUGCACUUCCAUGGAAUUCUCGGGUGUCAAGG | 1.14
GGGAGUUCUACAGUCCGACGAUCAGUCCUGUGCUACACAUCGUAUGUACCGAAUCGGGGCCCCGGGGCCCCGGCCCCGGGAAAGUAUUAUGUUACGCCGUUCGGAUCUGCACUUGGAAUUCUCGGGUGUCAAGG | -0.264
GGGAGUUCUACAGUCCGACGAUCAGUCCUGUGCUACACAUCGUAUGUACCGAAUCGGAAAGGUUUUUUUGGAAAAAAAGGAAAGUAUUAUGUUACGCCGUUCGGAUCUGCACUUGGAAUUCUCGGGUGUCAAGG | -1.3
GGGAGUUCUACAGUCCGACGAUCAGUCCUGUGCUACACAUCGUAUGUACCGAAUCGGGGUUUUGGGGUUUUGGGGUUUUGGAAAGUAUUAUGUUACGCCGUUCGGAUCUGCACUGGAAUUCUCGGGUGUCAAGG | 0.33
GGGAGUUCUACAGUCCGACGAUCCCUCAAGUCCUGUGCUACACAUCGUAUGUACCGAAUCGGAAAGGAGGAAAGGAAAGUAUUAUGUUACGCCGUUCGGAUCUGCACUUCCAGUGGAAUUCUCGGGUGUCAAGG | 0.176
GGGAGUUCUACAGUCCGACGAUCCAAGUCCUGUGCUACACAUCGUAUGUACCGAAUCGGAGGAAAAAGGAAAAAAAGGAAAGUAUUAUGUUACGCCGUUCGGAUCUGCACUUCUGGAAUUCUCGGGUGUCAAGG | -0.601
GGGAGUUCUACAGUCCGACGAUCGCAGGAAGUAAAAAAAAAUGGAAAUGCUUCGGAUAGUGGCAGGGGUGGGGGUUGCUAAGGAAAGGGUGGGAUGGGAGUGGGUAAAGAGUUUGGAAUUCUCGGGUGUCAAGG | -0.0728

Set 2
Target: RNA binding protein fox-1 homolog 2, RRM domain, GST-SBP tag (RBFOX2, Homo sapiens, UniProt O43251-10, residues 100-194)
Method: RNA Bind-n-Seq
Molecule type: RNA
Matrix: in vitro
Concentration: 365 nM
Notes: natural RNA segment, single round, ends assumed
Baseline: no-protein control
Reading: higher = stronger binding
Construct (chain): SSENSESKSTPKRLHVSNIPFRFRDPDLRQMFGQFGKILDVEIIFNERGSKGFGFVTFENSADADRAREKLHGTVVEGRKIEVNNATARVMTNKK
Strand | RBNS enrichment (R)
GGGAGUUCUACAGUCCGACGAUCAGUAUUCAGAGUCUCUGAUACACAGUAAUUGUGACAAUAGGGCUAAAUGUUUAAAGAAAUCAAAAGAAUCUAUUAGAUUUUAGAAAAACAUUUAAACUUUUUAAAAUACUUGGAAUUCUCGGGUGCCAA | 0.395
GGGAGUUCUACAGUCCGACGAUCACCUUUUUGAAGUUUGAGCCUUGAGCACCUUCAACAAAAUUGAGCACUCUGAUUAGGAUAUCCACUUUGCAAAUAAAACCAAAUGUUUUGUCAACAUGAUGGUAAAAAGGUGGAAUUCUCGGGUGCCAA | 0.299
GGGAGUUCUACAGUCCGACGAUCUCAAGGUUAACCUCUUUAGAAAAGAUUAGUAAAGGAGAUCCCGAAUGAUAGAAGAUAGAAAGACUAUUGCCUAGAAAUAUGAGACUGAGUUUUGAAACAGAAACCAGUACUGGAAUUCUCGGGUGCCAA | 0.429
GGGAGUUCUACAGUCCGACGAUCAUGAUGGGCAGCAGGUGGCGCUGCCUUCCACCCAUGGUGAUGGAUGGUUUGGAAAGGGAAUGUUGGUGCCUUUUGUGCCACAAGUUAAGAUGCUACUGUUUUAAAGGAAAUGGAAUUCUCGGGUGCCAA | 0.955
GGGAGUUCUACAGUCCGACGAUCACAGAGACAGAUUCCAAGACUGGAAACUUCAAUUACAUCCAGAGGCAGAGAAACCUUUCCUCGACCACUCUUUAUUGAGGUACCCUGGUCACACUGAUGGCAGGACACACUGGAAUUCUCGGGUGCCAA | 0.25

Set 3
Target: Probable WRKY transcription factor 33, N-terminal DNA-binding domain (WRKY33, Arabidopsis thaliana, UniProt Q8S8P5, residues 169-264)
Method: DNA-protein interaction ELISA
Molecule type: double-stranded DNA, one strand shown
Matrix: in vitro, bacterial lysate
Concentration: not given
Notes: whole dsDNA probe, crude lysate protein
Baseline: highest signal in screen
Reading: higher = stronger binding
Target sequence (chain): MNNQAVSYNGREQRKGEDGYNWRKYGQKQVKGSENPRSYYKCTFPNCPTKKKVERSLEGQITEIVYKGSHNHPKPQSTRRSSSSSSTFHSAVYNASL
Strand | relative absorbance
AAAAAAAGGTCATTGCTGCTGGTGTTAAAA | 23.4 % of maximum
AAAAAATGCCCATGTGCACCCGTACGAAAA | 18.5 % of maximum
AAAAAAGTTCGTGCTTAACCCAGTTTAAAA | 21.9 % of maximum
AAAAAATGTGGTTACGGCCTCGATGAAAAA | 17.7 % of maximum
AAAAAAGCGCGCCCGCACTGTTAATAAAAA | 27.7 % of maximum
AAAAAATAGGCGTTATGGCTAACACCAAAA | 21.2 % of maximum

Further values, each from its own experiment
Molecule | target | test | system | setting | scale | endpoint | result
PhoQ, residues 284 288 289 292 302 303 HSYLQF | PhoP, residues 12 14 15 18 19 LHHSG (Escherichia coli, UniProt P23836) | Sort-seq, item: YFP reporter | E. coli | PhoQ-PhoP variant library, with: 10 µM Mg2+ | baseline: high Mg2+ state, higher = stronger signaling | fold induction | 22

For quick reference, copied from above (set 1):
Strand | log2 enrichment
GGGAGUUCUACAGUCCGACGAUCGCAGGAAGUAAAAAAAAAUGGAAAUGCUUCGGAUAGUGGCAGGGGUGGGGGUUGCUAAGGAAAGGGUGGGAUGGGAGUGGGUAAAGAGUUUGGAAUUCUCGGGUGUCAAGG | -0.0728
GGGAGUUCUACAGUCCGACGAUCAGUCCUGUGCUACACAUCGUAUGUACCGAAUCGGGGCCCCGGGGCCCCGGCCCCGGGAAAGUAUUAUGUUACGCCGUUCGGAUCUGCACUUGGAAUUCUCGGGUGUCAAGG | -0.264
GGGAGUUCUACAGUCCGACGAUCAGUCCUGUGCUACACAUCGUAUGUACCGAAUCGGAAAGGUUUUUUUGGAAAAAAAGGAAAGUAUUAUGUUACGCCGUUCGGAUCUGCACUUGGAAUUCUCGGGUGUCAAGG | -1.3
